Published values collected from several papers.
Parts stem from different laboratories: compare values within a part only. Substitutions count along the parent as printed.

Sample 1 — target: CCND3, cyclin fold, Cln2 fusion (human); technique: yeast growth competition, sequencing; sample: yeast; notes: weak parent motif; baseline: not given; reading: higher = stronger binding; endpoint: normalised enrichment score
Starting sequence: SAMHD1 docking peptide (human); ASKSRVQLFKDDP; partner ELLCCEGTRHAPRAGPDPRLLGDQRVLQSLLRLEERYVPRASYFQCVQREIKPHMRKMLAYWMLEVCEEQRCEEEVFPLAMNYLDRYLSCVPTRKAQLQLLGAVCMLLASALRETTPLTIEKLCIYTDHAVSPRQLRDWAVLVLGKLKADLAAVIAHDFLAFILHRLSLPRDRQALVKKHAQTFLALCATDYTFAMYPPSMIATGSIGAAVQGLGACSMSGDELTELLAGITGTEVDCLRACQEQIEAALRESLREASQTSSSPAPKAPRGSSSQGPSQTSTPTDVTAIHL
S2G: 0.0192
K3L: 0.148
S2H: 0.383
D12W: -0.304
F9P: 0.334
S2P: -0.114
V6Q: -0.712
D12E: 0.616
F9Y: 0.0859
D12N: -0.026
S2Q: -0.0191
K3C: 0.251
R5K: -0.0935
Q7H: 0.244
S4E: -0.113
L8F: -0.00701

Sample 2 — technique: RNA Bind-n-Seq; form: RNA; sample: in vitro; concentration: 365 nM; baseline: no-protein control; reading: higher = stronger binding; endpoint: RBNS enrichment (R)
Target: RNA binding protein fox-1 homolog 2, RRM domain, GST-SBP tag (RBFOX2, Homo sapiens, UniProt O43251-10, residues 100-194)
Notes: natural RNA segment, single round, ends assumed
Shared flanks, not repeated: GGGAGUUCUACAGUCCGACGAUC … UGGAAUUCUCGGGUGCCAA
Target sequence (chain): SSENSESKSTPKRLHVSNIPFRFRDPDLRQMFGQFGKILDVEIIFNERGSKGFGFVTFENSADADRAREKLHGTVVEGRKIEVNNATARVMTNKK
GGAGGCAGCUGACCUCUCCAGUUGCUGUGUUGUAUUCCUACCCAAUUUCCUGGGCAGUUGAUGCAUCUCUGGGAAAAACACCAGAAAGCUUGCUGAAAUGGAAAACUUGG: 0.882
GCCUGAAGUGCAGCCUUCACCAGGGCAUUGUCUCUGCUGGUGUCAGUGACCCACAUUGAUGAGUGGUCUGAGCAGCUGGUGGGUUACUUUACCCAGUGUGUUCCUGCAUU: 0.397
GCUGAAGCUGUAGUUAUUAUGGGCCACUUACAUGAGGCUGAGAAGUACGUGCCGGAGCUCACACACUGCCUGUUGCGGUUCUCUUAACAUCAGUUAUCACAGCUGCCUGU: 0.674
UAAAAGGGGAAAGGCUAAUAGUAAAAUUUGACUUUCUGACUGCAUGCAACUGCUGGGCUUGCCUUCUGUUAGUGUGGUAGUACAUGACAGAGGCAUUAGACUAUUUUUUA: 11.2
CCAGGUACUGAGCGUCAGGCUCUGCAUAGCAGUUAAGCAGCACUGGUAGUGGUCUGCCGUGCAGGGGAUGCCUGCUAUGCAGGUGAUGCCCUCCCAGGAUCUAUUCCUGG: 0.314
GAACCAGACUGAAAGCUUCAGAGCAAUAAUGUGACUGAAAACUUAUUUAAAGUUAGCUUCUUUCCACUUCUGUGUGUGCUUGUGUGAUUUCAUUGUUUUAAUCAAGGGCU: 0.62
GCAAAAUGCUCAACUGUCAGCCCCGCAAGUAGACAGCUGUGUGCCGGACACCACCUAGCUGCAGCAAACAUCUGGCCAGCAGCAGCUUUCAAUAAAUCUACAGCAAACAA: 0.336
AGCCUUACCAACAUGGAGAAACCCCAUCUCUACUAAAAAUACAAAAUUACCUGGGCGUGGUGGUGCAUGCCUGUAAUCCCAUCAUCUACUCAGGAGGCUGAGGCAGGAGA: 1.87
CUUCGUCCAGUGUUAAGAACUGAGCCAAGGAGAAGCACGAGCAGCCUUCGCACCUGGAGGGUCAGAACGUGCACACACUGCUAACUAGUUUGCACCGGCAGUGCCUUUUU: 0.647
UUUCAAUGGGACAGGAACUAGGAUAGAUGUGAUUCCUGCAUUUUUUUACCUUAAAUCUGCCUUUGUUUCUAAAGGUAGAUCAUCUUGAAUAUUUGCUUAAAAUUGCUAGU: 0.937
AUGAUGCAAGCAGCCAUGACCCACAUUCUGUUGCUGCCUCGUUUAUGCAGAAGGUCUGAUUCCAGAUCGUACCUAAGCAAGACAAUGCUCCAAGACUGUACCAAGCCAAG: 0.255
GGAUGACAUCCUGUUUAUUUUCCCAUUUGGAUGCCACAUGGUAUCCAAAGCUGGUAGAGCAGCUAUCAUGCCUCAGGCCAUGGACAUUUGAAUGGGAGCCUCAGGCAUGA: 0.583

Sample 3 — technique: protein binding microarray; form: double-stranded DNA, one strand shown; sample: in vitro; concentration: not given; baseline: not given; reading: higher = stronger binding; endpoint: E-score
Target: Histone acetyltransferase KAT6A, winged helix 2, GST fusion (KAT6A, Homo sapiens, UniProt Q92794, residues 85-181)
Notes: 8-mer, flanks averaged, mean of 2 arrays, mostly near background
Residues (chain): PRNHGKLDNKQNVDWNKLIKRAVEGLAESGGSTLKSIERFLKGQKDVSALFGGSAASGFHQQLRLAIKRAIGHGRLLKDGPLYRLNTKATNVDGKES
GACAGTAC: -0.108
AGACGGTG: -0.299
GCAGGCCC: 0.0177
AGGCCGGA: 0.142
ACACAAAA: 0.194
AGAGTCTC: -0.203
CCTTAAGC: -0.00911
AGATATAG: -0.0666
ATATAACA: 0.108
CAGCCTTA: -0.101
AGCATGAC: 0.0485
AAATAGAC: 0.0374
TGGTGTAA: -0.169
TCCTGCGA: 0.095
ATAAAGCG: 0.0868
ATCCAACA: 0.0717
CGCGCAAG: 0.191
GACGGGGA: -0.0623
ATCTTTAA: 0.122
AAACGTCG: -0.0897
CGTGTATA: -0.226
CCCGGTTC: 0.0485
AAACATTA: -0.0732
CTTCTTCC: -0.0654
CGCACCAA: 0.112

Sample 4 — technique: protein-binding microarray; form: double-stranded DNA, one strand shown; sample: in vitro; concentration: 250 nM; notes: 60-bp whole probe; together with: salmon DNA 0.4 mg/ml; baseline: random background probes; reading: higher = stronger binding; endpoint: log fluorescence; shared flanks, not repeated: GCCTAGCAC … GTCTTGATTCGCTTGACGCTGCTG
Target: Interferon regulatory factor 5, full length, phosphomimetic (IRF5, Homo sapiens, UniProt Q13568-2, residues 1-514, K96S/S451D/S453D/S456D/S462D)
ATATATATTCATATATATATGTGCTAG: 1.08 z-score
GACGGTTTCGGTTTCGGCACGTGCTAG: 10.6 z-score
GACGGACTGGACACTGGGGGCGTGCTA: -0.0826 z-score
TCAATTCGTCATTTCACACTGTGCTAG: 0.896 z-score
GACGGGCTCGGACTGGGGACGTGCTAG: -0.662 z-score
GTAGAACTGGGGTATCGATTAGTGCTA: 2.2 z-score
GACAGTTTCCTTTTCCTGACGTGCTAG: 1.79 z-score
TTAGGACTGGGCACTGGGTTAGTGCTA: -0.655 z-score
TTACATTTCAGTATCGATTAGTGCTAG: 8.74 z-score
GAAGATCTCAGTCTCGAGACGTGCTAG: 0.16 z-score
TCATGTATGGGCATTTTTACTGTGCTA: -0.278 z-score
TCATGCTTCGAGATCTCACTGTGCTAG: 0.215 z-score
TCAACACTCGGTTTCCAACTGTGCTAG: 0.404 z-score
GACGAAATCAGTTTCGAGACGTGCTAG: 6.98 z-score
TCAATAATTTTTTTCTAACTGTGCTAG: 0.86 z-score
TTAGATATCCTTTTCCTTTAGTGCTAG: 0.836 z-score
GTAGGTTTCGACTATCGGTTAGTGCTA: 9.37 z-score
TTAGATCTCAGTATCGAGTAGTGCTAG: 2.48 z-score
TTAGGTTTGGGGTTTCGGTTAGTGCTA: 5.99 z-score
GACGGTTTCGACTAGCGGGACGTGCTA: 6.58 z-score
TTAGATTTCAGTATCGATGAGTGCTAG: 7.23 z-score
GGGTGAATGTGTCTTAAATAGTGCTAG: -0.285 z-score
GACGATTCCAGTTTCTAGACGTGCTAG: 1.27 z-score

Sample 5 — target: Sox-I, HMG box (Salpingoeca helianthica); technique: Spec-seq; form: double-stranded DNA, one strand shown; sample: in vitro; concentration: not given; notes: whole probe, mean of replicates; baseline: not given; reading: lower = stronger binding; endpoint: relative binding energy; shared flanks, not repeated: GAGTCGTCTCGTCAGCAC … CCGTAGAGCACTCAGGTC
Residues (chain): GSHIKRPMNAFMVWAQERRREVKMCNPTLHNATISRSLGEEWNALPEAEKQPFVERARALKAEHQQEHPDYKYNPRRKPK
CATGGCC: 0.947 ln ratio
ACTAGTT: -0.647 ln ratio
CATCTAT: 0.427 ln ratio
CATCTTA: 0.495 ln ratio
TAGGGTT: 0.77 ln ratio
CATATCA: 0.485 ln ratio
ATCGGTT: 0.408 ln ratio
CCTGGTT: 0.782 ln ratio
GGCTGTT: -0.391 ln ratio
GTAAGTT: 0.637 ln ratio
CATGCGA: 1.26 ln ratio
CATTGCT: 0.468 ln ratio
CATCCTT: 0.426 ln ratio
CATACGG: 0.606 ln ratio
CATGAGC: 1.09 ln ratio
CATAATC: -0.139 ln ratio
TCAGGTT: 0.605 ln ratio
ACGAGTT: 0.3 ln ratio
CATTCGG: 1.22 ln ratio
TGAAGTT: 0.604 ln ratio
CCCGGTT: 0.811 ln ratio
AGCCGTT: 0.349 ln ratio
GGGGGTT: 1.18 ln ratio
CTTCGTT: 0.565 ln ratio
CATAGAG: 0.0922 ln ratio
